Measured values pooled from the literature.
Numbered parts are unrelated; each lists some results of a single study. Changes are numbered by the printed parent chain.
Chain of UniProt Q9C0B0 (30-357, looked up): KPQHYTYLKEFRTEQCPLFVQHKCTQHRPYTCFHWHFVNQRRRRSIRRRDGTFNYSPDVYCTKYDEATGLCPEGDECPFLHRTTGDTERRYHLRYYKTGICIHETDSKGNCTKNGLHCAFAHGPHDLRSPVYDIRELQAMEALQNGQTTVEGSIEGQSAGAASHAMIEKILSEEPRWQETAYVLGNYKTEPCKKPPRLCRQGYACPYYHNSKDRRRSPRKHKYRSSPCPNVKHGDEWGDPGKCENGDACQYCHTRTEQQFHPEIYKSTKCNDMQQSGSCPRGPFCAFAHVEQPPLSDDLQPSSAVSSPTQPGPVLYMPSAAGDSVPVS

Series 1 — method: RNAcompete; form: RNA; sample: in vitro; tested at: 20 nM; setting: 7-mer, probes averaged, single round; baseline: mean of 7-mers; reading: higher = stronger binding
Target: PABPC1L2, full length, GST fusion (mouse, UniProt A0ABA7IW68)
Residues (chain): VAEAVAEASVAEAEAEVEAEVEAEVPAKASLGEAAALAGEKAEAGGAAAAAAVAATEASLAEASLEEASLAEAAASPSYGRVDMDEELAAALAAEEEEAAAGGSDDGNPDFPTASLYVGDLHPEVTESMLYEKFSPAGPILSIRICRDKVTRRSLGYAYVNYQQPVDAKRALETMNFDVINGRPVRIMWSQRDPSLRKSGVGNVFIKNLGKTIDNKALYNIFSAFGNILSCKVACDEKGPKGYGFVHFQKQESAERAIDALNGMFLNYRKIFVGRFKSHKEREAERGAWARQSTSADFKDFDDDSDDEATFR
Oligonucleotide | 7-mer Z-score
UGGCUCG | -0.284
GUGAUGC | -0.0718
UGAUGAU | -0.244
GAACCUG | -0.197
CAUCUAU | -0.298
UGUCUUU | -0.275
GGUAUUC | -0.13
UUAUUUA | -0.0736
CAGUUGA | -0.126
GGGUGGA | 0.271
CAGUAUA | -0.191

Series 2 — method: protein-binding microarray; form: double-stranded DNA, one strand shown; sample: in vitro; tested at: 250 nM; setting: 60-bp whole probe; with: salmon DNA 0.4 mg/ml; baseline: random background probes; reading: higher = stronger binding; shared flanks, not repeated: GCCTAGCAC … GTCTTGATTCGCTTGACGCTGCTG
Target: Interferon regulatory factor 5, full length, phosphomimetic (IRF5, Homo sapiens, UniProt Q13568-2, residues 1-514, K96S/S451D/S453D/S456D/S462D)
Oligonucleotide | log fluorescence
GACGAACTGGGGCTTCGAGACGTGCTA | -0.594 z-score
CTAGATATCAGTATCGATTAGTGCTAG | 7.86 z-score
TCATGCTTCTGTATTCAACTGTGCTAG | 0.286 z-score
GACGGTCTCGTTTTCGGGACGTGCTAG | 1.82 z-score
TTAGGTTTCCTGATCCTTTAGTGCTAG | 0.324 z-score
TAAGGTATCCTACTGCTTTAGTGCTAG | -0.275 z-score
AAAGATTTACAAACTGTGAGGGTGCTA | -0.112 z-score
TTAGGTCTCGGTCTCGATTAGTGCTAG | 0.755 z-score
TTAGATTTCAGACTGGATTCGTGCTAG | 0.348 z-score
GAAGGACTGGGTTTCGGGACGTGCTAG | 2.43 z-score
CATTTTCTCTTATTCTAACAGTGCTAG | 2.59 z-score

Series 3 — method: RNA Bind-n-Seq; form: RNA; sample: in vitro; tested at: 365 nM; baseline: no-protein control; reading: higher = stronger binding
Target: RNA binding protein fox-1 homolog 2, RRM domain, GST-SBP tag (RBFOX2, Homo sapiens, UniProt O43251-10, residues 100-194)
Setting: natural RNA segment, single round, ends assumed
Shared flanks, not repeated: GGGAGUUCUACAGUCCGACGAUC … UGGAAUUCUCGGGUGCCAA
Oligonucleotide | RBNS enrichment (R)
CUGUUGCAUACAGCUGAGUACAGUGAGCGGCUUCUGCACAUAUUUAACUCUCCCUAUAUAUUAACUCUCAAGUGCUGUAUUUUAAAAUUCAGCCCGUUUUUUAAAAAAGC | 0.719
GCCAGCCCAGGGGCCUUUACCAUGUUCUCUCCACAUCCGUAAAUAAACUUCCUUCACUACACUGUAAUCUGUGAGCAUGCUUCCUCUGCCCUGGCCUCUCUUGGGCCAAG | 1.35
CUAUAGUAUACAGUAGGUUAAGACUCAUGUCUAUGACUUUCACUCUAAGACUGGCAAAAGGACAGCAGUCUUCUAUGUUUAGUCAAUAUUCAUUUCAGUAGAAGAUAAUC | 0.385
CUUGUUGCCUGAGAAGAAACCUUGGGGUGCCAGGGUGGGGGCAGAAGCAUGGGCUGGGUUCCGGUUCAUCCUCCUCCACCCUGCCGUGUGUGUGGGCACAAGAGGACAUC | 1.3
AGCAUUAAAGAUUAUUUUCCUUAAAUCUCUUCAAGGCCUUCUUAUUGCUGUUAGAAUAGUGUUGUAUCAGGUAUGUGACCAUUUCAGAAGGCUGAACUUACAUAGAGGUU | 0.745
UACCUGCUGAGGGCGCUGGCUCUGCAGAUCAGAACAACGGAGGAUAGCUUUGUGCCUGGACCCAGAGAGUGUGGGACUCCCCGCUUCAUCCCCACCGUCCCACUCCACAG | 1.3
UGUCCCAGGGAAAGUCUGAGAAGGCCUGAGCCGUGACCUCUUCUGCUUACUGUAACUGCGGCCGGUUUAGUGACCCCAUGACUUACAGCCGGUUCUUACCUCUUAGGUGA | 0.419
GGCCAAGGGCAGAGGAUGUAAUGAGGGGUGGAGUGAGGAUGUGGAGAGAGAGCAGAGAGCGCCUCCUAUUCUACCGCGGCUGCCUCUGCCCCCACAGCACCCACAGAUCC | 0.901

Series 4 — target: CCNB1, cyclin fold, Cln2 fusion (human); method: yeast growth competition, sequencing; sample: yeast; setting: weak parent motif; baseline: not given; reading: higher = stronger binding
Parent: CDAN1 docking peptide (human); RGARSQLFPPTEA
Variant | normalised enrichment score
P10A | 0.385
L7A | -0.0111
Q6A | -0.183
S5A | 0.401
F8A | 0.509

Series 5 — method: DHFR PCA, deep sequencing; sample: yeast; with: (+)-ABA 0.39 µM; baseline: wild-type fitted maximum; reading: higher = stronger binding
Target: ABI1, truncated, D143A, DHFR fusion (Arabidopsis thaliana)
Setting: methotrexate growth selection, single substitutions
Parent: PYL1, truncated, DHFR fusion (Arabidopsis thaliana); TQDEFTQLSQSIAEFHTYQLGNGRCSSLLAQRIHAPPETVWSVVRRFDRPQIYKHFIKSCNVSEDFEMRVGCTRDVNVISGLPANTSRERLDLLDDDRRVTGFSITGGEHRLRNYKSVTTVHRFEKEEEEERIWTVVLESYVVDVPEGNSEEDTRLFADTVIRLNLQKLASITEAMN
Variant | relative binding score [%]
N165Q | 3.21
N165K | -5.58
T39C | 28.3
E130C | 47.2
G107N | 7.75
G23V | 0.371
K54E | -1.72
P36A | 31.2
Y53Q | -6.28
V100T | -7.14
P50H | -15.3

Series 6 — method: universal PBM; form: double-stranded DNA, one strand shown; sample: in vitro; tested at: not given; reading: higher = stronger binding
Target: Sal-like protein 4, full length isoform B (SALL4, Homo sapiens, UniProt Q9UJQ4-2, residues 1-616)
Setting: 8-mer, flanks averaged, mean of replicates
Residues (chain): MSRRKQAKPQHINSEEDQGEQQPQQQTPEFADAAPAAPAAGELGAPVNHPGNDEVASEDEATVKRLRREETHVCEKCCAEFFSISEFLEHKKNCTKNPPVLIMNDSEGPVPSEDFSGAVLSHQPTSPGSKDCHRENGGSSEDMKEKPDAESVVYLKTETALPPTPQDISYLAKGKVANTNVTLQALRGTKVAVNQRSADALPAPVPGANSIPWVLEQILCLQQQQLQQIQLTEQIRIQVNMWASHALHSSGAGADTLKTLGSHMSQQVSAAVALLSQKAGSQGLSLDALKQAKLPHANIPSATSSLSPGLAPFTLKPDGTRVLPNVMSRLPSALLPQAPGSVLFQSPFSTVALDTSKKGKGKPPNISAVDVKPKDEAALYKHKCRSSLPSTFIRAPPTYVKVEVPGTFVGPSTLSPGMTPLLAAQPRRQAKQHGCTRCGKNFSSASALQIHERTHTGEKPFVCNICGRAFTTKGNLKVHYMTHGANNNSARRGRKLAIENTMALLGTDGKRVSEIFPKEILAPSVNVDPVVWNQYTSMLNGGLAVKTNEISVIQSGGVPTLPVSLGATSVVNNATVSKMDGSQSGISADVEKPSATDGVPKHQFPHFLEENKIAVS
Oligonucleotide | E-score
GCCGAACA | -0.104
GGGGCACC | -0.302
AGCCCAAT | -0.00442
TACTGCTA | -0.00496
GGAATCCA | -0.105
AGAATGGG | -0.0563
CCTGGTCA | -0.301
GAACCTAC | -0.104
TGGTACCA | -0.161

Series 7 — method: RNA Bind-n-Seq; form: RNA; sample: in vitro; tested at: 200 nM; setting: whole 134-nt RNA, ends assumed; with: 150 mM LiCl; baseline: input library; reading: higher = stronger binding; all molecules: 7-deaza-guanosine replaces G
Target: Fragile X messenger ribonucleoprotein 1, C-terminal low-complexity region (Fmr1, Mus musculus, UniProt P35922)
Oligonucleotide | log2 enrichment
GGGAGUUCUACAGUCCGACGAUCUCCUGUGCUACACAUCGUAUGUACCGAAUCGGGCCCCCCGGGCCCCCCGGGCCCCCCGGGAAAGUAUUAUGUUACGCCGUUCGGAUCUGCUGGAAUUCUCGGGUGUCAAGG | -1.02
GGGAGUUCUACAGUCCGACGAUCCACAGACAACACGCACCCACACAGACACAGAGGGAAGGGGUUGGGAUGGGGACAGGGUGCACAGCAGGGCGGGGAAGGACCCCAGCCCCUUGGAAUUCUCGGGUGUCAAGG | 1.97
GGGAGUUCUACAGUCCGACGAUCUGGCCCUGGUGGCAUGCGGGGAGGAAGAGGUGGCCUCAUGGAUCGUGGUGGUCCCGGUGGAAUGUUCAAAGGUGGCCGUGGUGGAGACAGUGGAAUUCUCGGGUGUCAAGG | -0.58
GGGAGUUCUACAGUCCGACGAUCUGAAAAGAACUGCUCUCCAUGGAGAGAGUAACUCUGUCCUUAUUAUCGGACCCCGAGGAUCAGGAAAAACUAUGGUAAAAGCUGUUGAUUUGGAAUUCUCGGGUGUCAAGG | -3.71

Series 8 — method: aptamer microarray, sandwich; form: DNA with 2'F-ANA; sample: in vitro; tested at: 200 nM; with: Cy3 exosite-II aptamer, 400 nM; reading: higher = stronger binding; oligonucleotide: GGTTGGTGTGGTTGG
Target: Prothrombin, mature alpha-thrombin (F2, Homo sapiens, UniProt P00734)
Setting: whole 15-mer aptamer, many near background
Modification | mean fluorescence intensity [a.u.]
2'F-ANA at 4 6 7 8 14 | 140
2'F-ANA at 2 3 4 5 10 11 13 14 15 | 78.2
2'F-ANA at 1 3 4 5 6 7 9 11 15 | 55.2
2'F-ANA at 3 5 6 7 8 9 11 12 14 15 | 86.8
2'F-ANA at 2 5 7 8 15 | 77.8
2'F-ANA at 3 4 6 10 12 14 | 186
2'F-ANA at 5 7 8 9 13 | 59.2
2'F-ANA at 2 3 7 9 10 | 446
2'F-ANA at 3 8 9 11 12 13 14 | 791
2'F-ANA at 2 5 6 7 12 13 | 109
2'F-ANA at 1 6 7 8 9 10 | 58.8
2'F-ANA at 2 3 7 10 | 485
2'F-ANA at 1 2 3 4 6 8 10 11 12 13 14 | 72.9
2'F-ANA at 5 7 9 10 15 | 47.4
2'F-ANA at 2 4 9 12 14 | 122
2'F-ANA at 2 4 6 8 12 14 15 | 135
2'F-ANA at 1 4 13 | 83.1

Single results of other studies
Oligonucleotide | target | test | test system | conditions | how to read | endpoint | result
GGGAGUUCUACAGUCCGACGAUCUAUAAGAACUCUUGCAGUCUCCGAUGUUAUAAAAAUAUAUAUCUGAAUUGUAAGAGUUGUCCGCACAAGUUUUUUUUUUUUUUUUUUUUAAGCACUUGUUUUGGGUACAAGGCAUUUCUGCAACAGAGGAUUGAGCAUCA | RING finger protein unkempt homolog, zinc fingers 1-6, SBP tag (UNK, Homo sapiens, UniProt Q9C0B0, residues 30-357) | RNA Bind-n-Seq | RNA, in vitro | 100 nM, RNA with constant flanks, ends assumed | baseline: input RNA pool, higher = stronger binding | bound/input enrichment | 0.822 ratio

Excerpt of the above (series 5):
Variant | relative binding score [%]
K54E | -1.72
G23V | 0.371
N165K | -5.58
P50H | -15.3
T39C | 28.3
E130C | 47.2
